Measured values collected from several papers.
Protocols differ between the studies behind these lines. pEC50: −log10 of the molar value.
CALCR: Calcitonin receptor (CALCR, Homo sapiens, UniProt P30988)
YWHAG/RELA phospho-Ser45 p65 peptide: YWHAG/RELA, phospho-Ser45 p65 peptide (Homo sapiens, UniProt P61981+Q04206)
VHL/BRD9 with Elongin B/C: VHL/BRD9, with Elongin B/C (Homo sapiens, UniProt P40337+Q9H8M2)
VHL/BRD9: VHL/BRD9 (Homo sapiens, UniProt P40337+Q9H8M2)

For CC[C@H](C)[C@@H](C(=O)N[C@@H](CC(C)C)C(=O)N[C@@H](CO)C(=O)N[C@@H](CO)C(=O)N[C@H](C(=O)N[C@@H](CCC(=O)O)C(=O)N[C@H](C(=O)NCC(=O)N[C@@H](CO)C(=O)N[C@@H](CC(N)=O)C(=O)N[C@H](C(=O)N1C[C@H](O)C[C@H]1C(N)=O)[C@@H](C)O)C(C)C)[C@@H](C)O)N(C)C(=O)[C@H](C)NC(=O)CN(C)C(=O)[C@H](Cc1ccccc1)NC(=O)[C@H](CO)NC(=O)[C@H](CO)NC(=O)[C@H](CCCNC(=N)N)NC(=O)[C@H](CCC(N)=O)NC(=O)[C@H](CC(C)C)NC(=O)[C@H](Cc1ccccc1)NC(=O)[C@H](Cc1c[nH]cn1)NC(=O)[C@H](C)NC(=O)[C@H](CC(C)C)NC(=O)[C@H](CCCNC(=N)N)NC(=O)[C@H](CCC(=O)O)NC(=O)[C@@H](NC(=O)[C@H](C)NC(=O)[C@@H]1CCCCCNC(=O)C[C@H](NC(=O)[C@H](CCCNC(=N)N)NC(=O)CC[C@H](NC(=O)CCCCCCCCCCCCCCCCCCC(=O)O)C(=O)O)C(=O)NCC(=O)N[C@@H]([C@@H](C)O)C(=O)N[C@@H](C)C(=O)N[C@@H]([C@@H](C)O)C(=O)N1)[C@@H](C)O, the pEC50 was 9.66 (CALCR; cAMP, agonist).
O=Cc1ccc([N+](=O)[O-])c(OS(=O)(=O)c2cccc(OC(F)F)c2)c1 has a pEC50 of under 3.00 (YWHAG/RELA phospho-Ser45 p65 peptide; ternary complex formation, stabilizer, fluorescence anisotropy).
O=C(NC[C@@H](Cc1ccc(F)cc1)N1CCC(O)(C(F)(F)F)CC1)C1(c2ccc(Cl)cc2)CCCC1 has a pEC50 of 5.96 (TRPA1 (Homo sapiens, UniProt O75762, L881V)).
Cc1ncsc1-c1ccc(CNC(=O)[C@@H]2C[C@@H](O)CN2C(=O)[C@@H](NC(=O)C2(F)CC2)C(C)(C)C)c(OCCC2CCN(c3nc(NCC(C)(C)C4(O)CCOC4)nc(N4CCC[C@H]4Cn4ccnn4)n3)CC2)c1 (stereo partly drawn) gave a pEC50 of 7.43 (VHL/BRD9 with Elongin B/C; ternary complex formation, AlphaScreen; with: 50 nM His-BRD9 and 20 nM biotin-VCB).
CC[C@H](C)[C@@H](C(=O)N[C@@H](CC(C)C)C(=O)N[C@@H](CO)C(=O)N[C@@H](CO)C(=O)N[C@H](C(=O)N[C@@H](CCC(=O)O)C(=O)N[C@H](C(=O)NCC(=O)N[C@@H](CO)C(=O)N[C@@H](CC(N)=O)C(=O)N[C@H](C(=O)N1C[C@H](O)C[C@H]1C(N)=O)[C@@H](C)O)C(C)C)[C@@H](C)O)N(C)C(=O)[C@H](C)NC(=O)CN(C)C(=O)[C@H](Cc1ccccc1)NC(=O)[C@H](CO)NC(=O)[C@H](CO)NC(=O)[C@H](CCCNC(=N)N)NC(=O)[C@H](CCC(N)=O)NC(=O)[C@H](CC(C)C)NC(=O)[C@H](Cc1ccccc1)NC(=O)[C@H](CC(=O)O)NC(=O)[C@H](C)NC(=O)[C@H](CC(C)C)NC(=O)[C@H](CCCNC(=N)N)NC(=O)[C@H](CCC(N)=O)NC(=O)[C@@H](NC(=O)[C@H](C)NC(=O)[C@@H]1CSSC[C@H](NC(=O)[C@H](CCCNC(=N)N)NC(=O)CC[C@H](NC(=O)CCCCCCCCCCCCCCCCCCC(=O)O)C(=O)O)C(=O)N[C@@H](CC(N)=O)C(=O)N[C@@H]([C@@H](C)O)C(=O)N[C@@H](C)C(=O)N[C@@H]([C@@H](C)O)C(=O)N1)[C@@H](C)O has a pEC50 of 9.90 (CALCR; cAMP, agonist).
With CC(C)(C(=O)N1CCC(Nc2nc3c(c(=O)[nH]2)CCCC3)CC1)c1ccc(Cl)cc1 the pEC50 was 7.04 (MRGPRD (Homo sapiens, UniProt Q8TDS7); miniGq recruitment, agonist, BRET1; HEK293T).
For CC[C@H](C)[C@H](NC(=O)[C@@H]1CCCN1C(=O)CNC(=O)[C@H](Cc1ccccc1)NC(=O)[C@H](CC(N)=O)NC(=O)[C@H](CC(N)=O)NC(=O)[C@H](CO)NC(=O)[C@H](CO)NC(=O)[C@H](Cc1c[nH]cn1)NC(=O)[C@H](CCCNC(=N)N)NC(=O)[C@H](CC(C)C)NC(=O)[C@H](Cc1ccccc1)NC(=O)[C@H](CCC(=O)O)NC(=O)[C@H](C)NC(=O)[C@H](CC(C)C)NC(=O)[C@H](CCCNC(=N)N)NC(=O)[C@H](CCC(N)=O)NC(=O)[C@@H](NC(=O)[C@H](C)NC(=O)[C@@H]1CSSC[C@H](NC(=O)[C@H](CCCCN)NC(=O)CC[C@H](NC(=O)CCCCCCCCCCCCCCCCCCC(=O)O)C(=O)O)C(=O)N[C@@H](CC(N)=O)C(=O)N[C@@H]([C@@H](C)O)C(=O)N[C@@H](C)C(=O)N[C@@H]([C@@H](C)O)C(=O)N1)[C@@H](C)O)C(=O)N[C@@H](CC(C)C)C(=O)N1CCC[C@H]1C(=O)N1CCC[C@H]1C(=O)N[C@H](C(=O)N[C@@H](CC(N)=O)C(=O)N[C@H](C(=O)NCC(=O)N[C@@H](CO)C(=O)N[C@@H](CC(N)=O)C(=O)N[C@H](C(=O)N[C@@H](Cc1ccc(O)cc1)C(N)=O)[C@@H](C)O)C(C)C)[C@@H](C)O, the pEC50 was 11.20 (Calcitonin receptor, isoform a (CALCR, Homo sapiens, UniProt P30988); reporter gene, agonist, CRE-luciferase; BHK expressing CTR; 3 h).
For O=C1C[C@H](c2nc(-c3ccc(F)c4cn[nH]c34)no2)CCCN1c1ccc(F)cc1 (racemic), the pEC50 was 6.07 (CNR2 (Homo sapiens, UniProt P34972, H95A); cAMP, agonist, luciferase).
The pEC50 of Oc1ccc(C2COc3cc(O)ccc3C2)cc1 (racemic) is reported as 6.55 (ESR2 (Homo sapiens, UniProt Q92731); array formation, agonist; GFP-ERβ PRL-HeLa; 1 h).
With COc1cc(I)c(Cc2cc(OC)c(OC)cc2CC(=O)OC(C)(C)C)cc1OC the pEC50 was 5.75 (MTNR1B (Homo sapiens, UniProt P49286); β-arrestin recruitment, agonist).
COc1cc(C2C(NC(=O)c3ccc(NC(=O)OC(C)(C)C)cc3)(C(=O)O)C(c3ccc(OC(=O)c4cccs4)c(OC)c3)C2(NC(=O)c2ccc(NC(=O)OC(C)(C)C)cc2)C(=O)O)ccc1OC(=O)c1cccs1 (stereo not drawn) gave a pEC50 of 6.42 (GLP1R (Homo sapiens, UniProt P43220, L201A); cAMP, agonist).
O=Cc1ccc([N+](=O)[O-])c(OS(=O)(=O)c2ccccc2)c1 gave a pEC50 of under 3.00 (YWHAG/RELA phospho-Ser45 p65 peptide; ternary complex formation, stabilizer, fluorescence anisotropy).
The pEC50 of CC[C@H](C)[C@@H](C(=O)N[C@@H](CC(C)C)C(=O)N[C@@H](CO)C(=O)N[C@@H](CO)C(=O)N[C@H](C(=O)N[C@@H](CCC(=O)O)C(=O)N[C@H](C(=O)NCC(=O)N[C@@H](CO)C(=O)N[C@@H](CC(N)=O)C(=O)N[C@H](C(=O)N1C[C@H](O)C[C@H]1C(N)=O)[C@@H](C)O)C(C)C)[C@@H](C)O)N(C)C(=O)[C@H](C)NC(=O)CN(C)C(=O)[C@H](Cc1ccccc1)NC(=O)[C@H](CO)NC(=O)[C@H](CO)NC(=O)[C@H](CCCNC(=N)N)NC(=O)[C@H](CC(N)=O)NC(=O)[C@H](CC(C)C)NC(=O)[C@H](Cc1ccccc1)NC(=O)[C@H](Cc1c[nH]cn1)NC(=O)[C@H](C)NC(=O)[C@H](CC(C)C)NC(=O)[C@H](CCCNC(=N)N)NC(=O)[C@H](CCC(=O)O)NC(=O)[C@@H](NC(=O)[C@H](C)NC(=O)[C@@H]1CSSC[C@H](NC(=O)[C@H](CCCNC(=N)N)NC(=O)CC[C@H](NC(=O)CCCCCCCCCCCCCCCCCCC(=O)O)C(=O)O)C(=O)NCC(=O)N[C@@H]([C@@H](C)O)C(=O)N[C@@H](C)C(=O)N[C@@H]([C@@H](C)O)C(=O)N1)[C@@H](C)O is reported as 9.81 (CALCR; cAMP, agonist).
With CC(=O)NCCN(c1nc(N2CC3C(CCOc4cc(-c5scnc5C)ccc4CNC(=O)[C@@H]4C[C@@H](O)CN4C(=O)[C@@H](NC(=O)C4(F)CC4)C(C)(C)C)C3C2)nc(N2CC(n3ccnc3)C2)n1)C(C)C (stereo partly drawn) the pEC50 was 6.33 (VHL/BRD9; ternary complex formation, NanoBiT; HEK293T; 2 h, with: MLN4924 2 µM).
The pEC50 of CC[C@H](C)[C@@H](C(=O)N[C@@H](CC(C)C)C(=O)N[C@@H](CO)C(=O)N[C@@H](CO)C(=O)N[C@H](C(=O)N[C@@H](CCC(=O)O)C(=O)N[C@H](C(=O)NCC(=O)N[C@@H](CO)C(=O)N[C@@H](CC(N)=O)C(=O)N[C@H](C(=O)N1C[C@H](O)C[C@H]1C(N)=O)[C@@H](C)O)C(C)C)[C@@H](C)O)N(C)C(=O)[C@H](C)NC(=O)CN(C)C(=O)[C@H](Cc1ccccc1)NC(=O)[C@H](CO)NC(=O)[C@H](CO)NC(=O)[C@H](CCCNC(=N)N)NC(=O)[C@H](CCC(N)=O)NC(=O)[C@H](CC(C)C)NC(=O)[C@H](Cc1ccccc1)NC(=O)[C@H](CCCC(=O)O)NC(=O)[C@H](C)NC(=O)[C@H](CC(C)C)NC(=O)[C@H](CCCNC(=N)N)NC(=O)[C@H](CCC(=O)O)NC(=O)[C@@H](NC(=O)[C@H](C)NC(=O)[C@@H]1CCCCNC(=O)C[C@H](NC(=O)[C@H](CCCNC(=N)N)NC(=O)CC[C@H](NC(=O)CCCCCCCCCCCCCCCCCCC(=O)O)C(=O)O)C(=O)NCC(=O)N[C@@H]([C@@H](C)O)C(=O)N[C@@H](C)C(=O)N[C@@H]([C@@H](C)O)C(=O)N1)[C@@H](C)O is reported as 9.50 (CALCR; cAMP, agonist).
CC(=O)NCC1CCCCN1c1nc(N(C)CCc2ncc(C)s2)nc(N2CC3C(CCOc4cc(-c5scnc5C)ccc4CNC(=O)[C@@H]4C[C@@H](O)CN4C(=O)[C@@H](NC(=O)C4(F)CC4)C(C)(C)C)C3C2)n1 (stereo partly drawn) has a pEC50 of 6.71 (VHL/BRD9; ternary complex formation, NanoBiT; HEK293T; 2 h, with: MLN4924 2 µM).
With CC[C@H](C)[C@@H](C(=O)N[C@@H](CC(C)C)C(=O)N[C@@H](CO)C(=O)N[C@@H](CO)C(=O)N[C@H](C(=O)N[C@@H](CC(N)=O)C(=O)N[C@H](C(=O)NCC(=O)N[C@@H](CO)C(=O)N[C@@H](CC(N)=O)C(=O)N[C@H](C(=O)N1CCC[C@@H]1C(N)=O)[C@@H](C)O)C(C)C)[C@@H](C)O)N(C)C(=O)[C@H](C)NC(=O)CN(C)C(=O)[C@H](Cc1ccccc1)NC(=O)[C@H](CC(N)=O)NC(=O)[C@H](CC(N)=O)NC(=O)[C@H](CO)NC(=O)[C@H](CO)NC(=O)[C@H](CCCNC(=N)N)NC(=O)[C@H](Cc1c[nH]cn1)NC(=O)[C@H](CC(C)C)NC(=O)[C@H](Cc1ccccc1)NC(=O)[C@H](CCC(=O)O)NC(=O)[C@H](C)NC(=O)[C@H](CC(C)C)NC(=O)[C@H](CCCNC(=N)N)NC(=O)[C@H](CCC(N)=O)NC(=O)[C@@H](NC(=O)[C@H](C)NC(=O)[C@@H]1CSSC[C@H](NC(=O)[C@H](CCCNC(=N)N)NC(=O)CC[C@H](NC(=O)CCCCCCCCCCCCCCCCCCC(=O)O)C(=O)O)C(=O)N[C@@H](CC(N)=O)C(=O)N[C@@H]([C@@H](C)O)C(=O)N[C@@H](C)C(=O)N[C@@H]([C@@H](C)O)C(=O)N1)[C@@H](C)O the pEC50 was 9.16 (CALCR; cAMP, agonist).
CC(=O)NCCN(c1nc(NCc2n[nH]c3c2CCCC3)nc(N2CC3C(CCOc4cc(-c5scnc5C)ccc4CNC(=O)[C@@H]4C[C@@H](O)CN4C(=O)[C@@H](NC(=O)C4(F)CC4)C(C)(C)C)C3C2)n1)C(C)C (stereo partly drawn) gave a pEC50 of 6.05 (VHL/BRD9 with Elongin B/C; ternary complex formation, AlphaScreen; with: 50 nM His-BRD9 and 20 nM biotin-VCB).
